Assay results from different studies.
Each line is one published result; not all experiments were run side by side. Numbers after ± are the reported error.
BCHE: Cholinesterase (BCHE, Homo sapiens, UniProt P06276)
UniProt P06276, sequence (whole entry, looked up): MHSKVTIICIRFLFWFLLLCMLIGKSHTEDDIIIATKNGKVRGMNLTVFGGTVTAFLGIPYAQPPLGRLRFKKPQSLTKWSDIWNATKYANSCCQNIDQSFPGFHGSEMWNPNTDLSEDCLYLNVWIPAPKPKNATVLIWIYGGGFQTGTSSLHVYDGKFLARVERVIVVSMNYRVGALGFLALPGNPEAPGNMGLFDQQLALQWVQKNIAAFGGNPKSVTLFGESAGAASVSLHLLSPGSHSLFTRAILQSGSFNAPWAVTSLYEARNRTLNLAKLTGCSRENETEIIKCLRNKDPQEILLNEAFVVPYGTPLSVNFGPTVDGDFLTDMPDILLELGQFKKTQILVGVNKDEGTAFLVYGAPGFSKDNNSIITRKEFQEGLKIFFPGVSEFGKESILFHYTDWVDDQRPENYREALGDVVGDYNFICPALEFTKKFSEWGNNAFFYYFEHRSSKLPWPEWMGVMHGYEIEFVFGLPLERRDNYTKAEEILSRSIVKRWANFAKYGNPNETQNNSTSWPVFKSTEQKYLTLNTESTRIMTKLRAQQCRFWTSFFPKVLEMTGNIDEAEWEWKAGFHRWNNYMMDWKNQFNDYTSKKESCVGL
UniProt P41143, sequence (whole entry, looked up): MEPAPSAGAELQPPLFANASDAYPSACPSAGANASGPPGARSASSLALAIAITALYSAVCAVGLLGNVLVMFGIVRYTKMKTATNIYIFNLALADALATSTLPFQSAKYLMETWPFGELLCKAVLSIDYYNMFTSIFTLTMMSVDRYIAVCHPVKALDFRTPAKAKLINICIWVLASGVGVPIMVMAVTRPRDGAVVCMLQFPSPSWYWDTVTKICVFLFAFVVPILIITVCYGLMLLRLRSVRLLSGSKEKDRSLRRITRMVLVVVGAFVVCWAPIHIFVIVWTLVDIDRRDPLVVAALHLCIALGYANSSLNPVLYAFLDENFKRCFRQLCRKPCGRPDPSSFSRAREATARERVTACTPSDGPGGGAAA
UniProt P11712, sequence (whole entry, looked up): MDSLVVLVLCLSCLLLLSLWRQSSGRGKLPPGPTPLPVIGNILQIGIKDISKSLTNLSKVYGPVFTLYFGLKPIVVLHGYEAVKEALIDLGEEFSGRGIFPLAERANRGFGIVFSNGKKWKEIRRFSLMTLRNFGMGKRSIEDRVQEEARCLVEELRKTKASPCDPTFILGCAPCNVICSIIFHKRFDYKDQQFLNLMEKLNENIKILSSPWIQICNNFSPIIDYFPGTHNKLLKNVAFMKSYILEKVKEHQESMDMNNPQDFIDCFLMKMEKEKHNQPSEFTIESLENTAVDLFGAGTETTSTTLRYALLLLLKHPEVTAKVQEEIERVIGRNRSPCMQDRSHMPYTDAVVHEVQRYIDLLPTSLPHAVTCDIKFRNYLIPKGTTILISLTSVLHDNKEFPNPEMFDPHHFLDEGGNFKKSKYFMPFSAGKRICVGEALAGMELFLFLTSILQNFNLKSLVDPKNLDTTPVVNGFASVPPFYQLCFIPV
UniProt P37136, sequence (whole entry, looked up): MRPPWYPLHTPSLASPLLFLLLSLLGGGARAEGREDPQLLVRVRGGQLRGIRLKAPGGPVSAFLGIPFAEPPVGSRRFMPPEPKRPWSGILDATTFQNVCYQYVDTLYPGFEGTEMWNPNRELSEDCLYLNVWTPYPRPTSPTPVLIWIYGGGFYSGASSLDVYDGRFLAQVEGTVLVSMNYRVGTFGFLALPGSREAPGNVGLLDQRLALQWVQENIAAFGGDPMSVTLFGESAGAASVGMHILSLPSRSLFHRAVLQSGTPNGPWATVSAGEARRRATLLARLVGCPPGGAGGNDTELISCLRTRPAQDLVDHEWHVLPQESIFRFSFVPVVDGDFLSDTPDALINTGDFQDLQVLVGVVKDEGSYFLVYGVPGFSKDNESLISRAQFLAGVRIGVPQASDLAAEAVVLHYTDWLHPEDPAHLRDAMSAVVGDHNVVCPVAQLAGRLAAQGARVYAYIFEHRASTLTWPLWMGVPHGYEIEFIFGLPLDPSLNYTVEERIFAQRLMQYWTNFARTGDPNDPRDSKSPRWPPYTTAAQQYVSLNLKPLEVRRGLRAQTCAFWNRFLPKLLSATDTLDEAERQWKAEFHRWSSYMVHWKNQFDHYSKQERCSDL
UniProt P28472, sequence (whole entry, looked up): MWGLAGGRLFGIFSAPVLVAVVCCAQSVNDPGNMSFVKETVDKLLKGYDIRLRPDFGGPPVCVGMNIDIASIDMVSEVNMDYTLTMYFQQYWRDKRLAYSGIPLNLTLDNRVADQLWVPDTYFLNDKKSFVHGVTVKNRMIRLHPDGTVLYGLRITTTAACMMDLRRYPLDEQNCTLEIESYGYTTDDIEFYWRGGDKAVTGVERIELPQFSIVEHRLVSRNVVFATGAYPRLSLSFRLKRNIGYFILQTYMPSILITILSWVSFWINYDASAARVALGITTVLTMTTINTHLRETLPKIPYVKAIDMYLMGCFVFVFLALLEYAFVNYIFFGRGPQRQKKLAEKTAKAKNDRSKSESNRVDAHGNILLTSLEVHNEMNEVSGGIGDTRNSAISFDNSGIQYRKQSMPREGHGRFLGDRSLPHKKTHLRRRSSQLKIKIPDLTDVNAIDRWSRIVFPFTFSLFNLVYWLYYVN
UniProt Q5VYX0, sequence (whole entry, looked up): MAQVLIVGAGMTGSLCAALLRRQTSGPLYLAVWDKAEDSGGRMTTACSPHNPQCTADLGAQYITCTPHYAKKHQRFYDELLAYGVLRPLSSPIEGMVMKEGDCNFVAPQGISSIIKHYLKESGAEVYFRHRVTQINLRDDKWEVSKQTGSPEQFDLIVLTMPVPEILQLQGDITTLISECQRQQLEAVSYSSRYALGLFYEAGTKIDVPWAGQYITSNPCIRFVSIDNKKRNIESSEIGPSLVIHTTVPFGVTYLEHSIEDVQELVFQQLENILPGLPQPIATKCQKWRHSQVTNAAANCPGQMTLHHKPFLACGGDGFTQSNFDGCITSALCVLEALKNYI
UniProt P23141, sequence (whole entry, looked up): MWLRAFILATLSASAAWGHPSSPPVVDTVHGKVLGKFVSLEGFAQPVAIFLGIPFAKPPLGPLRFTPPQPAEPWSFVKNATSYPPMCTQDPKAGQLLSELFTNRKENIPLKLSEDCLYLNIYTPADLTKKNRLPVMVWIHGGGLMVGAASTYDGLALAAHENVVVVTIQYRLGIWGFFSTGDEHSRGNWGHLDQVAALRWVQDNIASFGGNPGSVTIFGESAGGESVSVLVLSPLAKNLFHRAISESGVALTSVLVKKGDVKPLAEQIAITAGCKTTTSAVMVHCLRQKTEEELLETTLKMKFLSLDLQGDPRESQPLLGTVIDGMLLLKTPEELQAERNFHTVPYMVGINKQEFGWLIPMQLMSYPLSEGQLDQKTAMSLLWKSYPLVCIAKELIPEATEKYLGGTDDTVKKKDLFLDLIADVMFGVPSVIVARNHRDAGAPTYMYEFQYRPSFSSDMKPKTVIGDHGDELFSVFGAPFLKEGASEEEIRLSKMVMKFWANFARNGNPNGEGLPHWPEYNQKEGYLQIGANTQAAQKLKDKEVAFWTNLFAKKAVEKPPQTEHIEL
UniProt P25123, sequence (whole entry, looked up): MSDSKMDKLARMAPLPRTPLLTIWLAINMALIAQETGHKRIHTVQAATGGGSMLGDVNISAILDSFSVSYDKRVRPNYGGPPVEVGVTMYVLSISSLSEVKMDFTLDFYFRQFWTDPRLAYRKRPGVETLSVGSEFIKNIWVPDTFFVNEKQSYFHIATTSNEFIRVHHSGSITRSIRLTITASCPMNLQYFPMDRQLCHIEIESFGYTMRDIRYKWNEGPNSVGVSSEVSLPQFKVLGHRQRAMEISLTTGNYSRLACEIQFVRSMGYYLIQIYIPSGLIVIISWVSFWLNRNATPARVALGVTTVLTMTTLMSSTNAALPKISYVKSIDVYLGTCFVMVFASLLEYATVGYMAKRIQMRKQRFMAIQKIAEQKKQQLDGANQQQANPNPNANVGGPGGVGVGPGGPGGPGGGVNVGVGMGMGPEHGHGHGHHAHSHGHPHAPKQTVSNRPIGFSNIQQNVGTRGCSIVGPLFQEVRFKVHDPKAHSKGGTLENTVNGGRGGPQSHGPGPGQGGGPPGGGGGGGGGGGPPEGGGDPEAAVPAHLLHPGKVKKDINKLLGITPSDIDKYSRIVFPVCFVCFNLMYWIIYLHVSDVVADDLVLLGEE
UniProt P42574, sequence (whole entry, looked up): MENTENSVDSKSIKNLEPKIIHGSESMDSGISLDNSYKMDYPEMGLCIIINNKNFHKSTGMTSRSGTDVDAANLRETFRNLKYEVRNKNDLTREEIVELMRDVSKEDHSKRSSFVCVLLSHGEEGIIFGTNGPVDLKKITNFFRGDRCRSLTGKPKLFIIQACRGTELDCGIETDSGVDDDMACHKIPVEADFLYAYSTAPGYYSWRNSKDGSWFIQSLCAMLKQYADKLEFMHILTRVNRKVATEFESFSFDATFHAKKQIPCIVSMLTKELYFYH
UniProt P55210, sequence (whole entry, looked up): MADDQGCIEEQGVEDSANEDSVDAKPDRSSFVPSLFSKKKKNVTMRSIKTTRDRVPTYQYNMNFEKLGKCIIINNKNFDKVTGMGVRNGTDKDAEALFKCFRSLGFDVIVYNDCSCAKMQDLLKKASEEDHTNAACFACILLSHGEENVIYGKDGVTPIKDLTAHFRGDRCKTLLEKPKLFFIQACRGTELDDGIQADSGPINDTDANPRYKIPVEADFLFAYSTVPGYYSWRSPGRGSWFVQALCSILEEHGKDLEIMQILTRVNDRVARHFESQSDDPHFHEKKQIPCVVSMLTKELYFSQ

With `benzalkonium bromide` the IC50 was 11.1 ± 3.12 µM (BCHE; enzyme activity, inhibitor).
For `pregnenolone sulfate`, the EC50 was greater than 500000 nM (GABA-A receptor alpha-1/beta-3 (GABRA1/GABRB3, Homo sapiens, UniProt P14867+P28472); [3H]muscimol binding, modulator; added: [3H]muscimol 2 nM).
With `propranolol` the Papp was 141 nm/s (Caco-2).
Under “subjects with influenza-like illness”, `deucravacitinib` is recorded as 11.1% (multiple ascending dose; healthy human; oral, 12 mg twice daily).
For `ADP-ribose`, the Kd was 12400 µM (Renalase (RNLS, Homo sapiens, UniProt Q5VYX0); reductive half-reaction, inhibitor; added: 6-hydro-NAD 173 µM).
The Kd of `ristocetin` is reported as 2.8 ± 0.2 µM (Endolysin (Enterobacteria phage T4, UniProt P00720, C54T/C97A/L164A); SPR; 25 °C, T4 lysozyme fusion).
The IC50 of `Ac-DEVD-CHO` is reported as 0.00549 µM (Caspase-7 (CASP7, Homo sapiens, UniProt P55210); inhibitor).
`phoxim-oxon` gave an IC50 of 0.017 µM (Ache (Rattus norvegicus, UniProt P37136); inhibitor; rat, postnatal day 70, rat skeletal muscle homogenate; 15 min, 37 °C).
For `ginkgolide B`, the Kd was 0.045 µM (Rdl (Drosophila melanogaster, UniProt P25123); GABA response, antagonist, koff/kon kinetics).
With `evodiamine` the IC50 was 19.5 ± 4.1 µM (BCHE; enzyme activity, inhibitor, fluorescence).
The IC50 of `mitragynine` is reported as greater than 45 µM (Cytochrome P450 2C9 (CYP2C9, Homo sapiens, UniProt P11712); diclofenac 4'-hydroxylation, inhibitor; human liver microsomes).
For `maraviroc`, the water solubility was roughly 1 mg/mL (unbuffered water; 20 °C).
The Ki of `corynantheidine` is reported as 12.5 µM (CES1 (Homo sapiens, UniProt P23141); enzyme activity, inhibitor; added: oseltamivir substrate).
For `SNC80`, the EC50 was 1.94 nM (Delta-type opioid receptor, with Gi2 (OPRD1, Homo sapiens, UniProt P41143); Gi2 activation, agonist).
`Ac-DEVD-CHO` gave an IC50 of 0.00167 µM (Caspase-3 (CASP3, Homo sapiens, UniProt P42574); enzyme activity).
`buprenorphine hydrochloride` gave an IC50 of 5.14 ± 1.3 µM (UGT2B7 (Homo sapiens, UniProt P16662); 4-MU glucuronidation, inhibitor; added: 4-MU 350 µM).

Excerpt of the above:
For `pregnenolone sulfate`, the EC50 was greater than 500000 nM (GABA-A receptor alpha-1/beta-3 (GABRA1/GABRB3, Homo sapiens, UniProt P14867+P28472); [3H]muscimol binding, modulator; added: [3H]muscimol 2 nM).
With `propranolol` the Papp was 141 nm/s (Caco-2).
